Published values pooled from the literature.
Protocols differ between the studies behind these lines. In brackets after ≈: the same amount, converted by molar mass.
Organism: Mycobacterium tuberculosis

| Structure (SMILES) | assay | system | conditions | measurement | value |
| --- | --- | --- | --- | --- | --- |
| COc1c(N2C[C@@H]3CCCN[C@@H]3C2)c(F)cc2c(=O)c(C(=O)O)cn(C3CC3)c12 | – | mouse, lung | inhaled or intranasal, 30 mg/kg once daily, 216 h | lung CFU reduction | 3.07 log10 CFU |
| Cc1cccc(NCc2ccc(Oc3ccccn3)cc2)c1 | – | H37Rv, GAST-Fe medium | 2 weeks, pH 6.6 | MIC | 43 µM (≈ 12.5 µg/mL) |
| O=C(OCc1ccccc1)c1cc(-c2ccccc2)[nH]n1 | microplate alamar blue | H37Rv (ATCC 27294), GAS medium | replicating bacteria, range | MIC | 1.8 to 4.3 µM (≈ 0.501 to 1.2 µg/mL) |
| [H]/N=C(/N)N[C@H]1[C@H](O)[C@@H](O)[C@H](O[C@@H]2O[C@@H](C)[C@](O)(C=O)[C@H]2O[C@@H]2O[C@@H](CO)[C@H](O)[C@@H](O)[C@@H]2NC)[C@@H](N/C(N)=N\[H])[C@@H]1O | microbial growth, disc diffusion | ATCC25177 | 1 µg/disc, 12 days | inhibition zone | 0 mm |
| Fc1ccccc1NCc1ccc(Oc2ccccn2)cc1 | – | H37Rv, GAST-Fe medium | week 2, pH 6.6 | MIC | 70 µM (≈ 20.6 µg/mL) |
| Nc1ncnc2c1ncn2[C@@H]1O[C@H](CNS(=O)(=O)NC(=O)CCCCCCCCCCOc2ccccc2)[C@@H](O)[C@H]1O | broth microdilution | H37Rv, GAST medium | MIC at >99% growth inhibition | MIC | 1.56 to 3.13 µM (≈ 0.945 to 1.9 µg/mL) |
| Fc1ccc(NCc2ccc(Oc3ccccn3)cc2)cc1 | – | H37Rv, GAST-Fe medium | 1 weeks, pH 6.6 | MIC | 19 µM (≈ 5.59 µg/mL) |
| O=C(OCc1ccccc1)c1cc(-c2ccccc2)on1 | microplate alamar blue | H37Rv (ATCC 27294), 7H12 medium | replicating bacteria, range | MIC | 0.7 to 0.8 µM (≈ 0.196 to 0.223 µg/mL) |
| NNC(=O)c1ccncc1 | – | H37Rv, GAST-Fe medium | 2 weeks, pH 6.6 | MIC | 0.2 to 0.4 µM (≈ 0.0274 to 0.0549 µg/mL) |
| O=C(OCc1ccccc1)[C@@H]1CSC(c2ccccc2)=N1 | microplate alamar blue | H37Rv (ATCC 27294), GAS medium | replicating bacteria, range | MIC | 9.1 to 18.3 µM (≈ 2.71 to 5.44 µg/mL) |
| NCCCCCCCCCCCC(=O)NS(=O)(=O)OC[C@H]1O[C@@H](n2cnc3c(N)ncnc32)[C@H](O)[C@@H]1O | broth microdilution | H37Rv, GAST medium | MIC at >99% growth inhibition | MIC | 3.13 to 6.25 µM (≈ 1.7 to 3.4 µg/mL) |
| CC(C)=CCCC(C)=CCNCCNC1(C)C2CC3CC(C2)CC1C3 (centres unmarked) | growth | Erdman | – | IC50 | 2 µM |
| Cc1ccn2c(C(=O)NCc3ccccc3)c(C)nc2c1 | microplate alamar blue | H37Rv (ATCC 27294), GAS medium | replicating bacteria, range | MIC | 0.4 to 1.1 µM (≈ 0.112 to 0.307 µg/mL) |
| Nc1ncnc2c1ncn2[C@@H]1O[C@H](COS(=O)(=O)NC(=O)CCCCCCCCCCOc2ccc(F)cc2)[C@@H](O)[C@H]1O | broth microdilution | H37Rv, GAST medium | MIC at >99% growth inhibition | MIC | 12.5 to 25 µM (≈ 7.81 to 15.6 µg/mL) |
| Clc1ccc(NCc2ccc(Oc3ccccn3)cc2)cc1 | – | H37Rv, GAST-Fe medium | 2 weeks, pH 6.6 | MIC | 20 to 40 µM (≈ 6.22 to 12.4 µg/mL) |
| CCCCC/C=C\CCCC(=O)NS(=O)(=O)OC[C@H]1O[C@@H](n2cnc3c(N)ncnc32)[C@H](O)[C@@H]1O | broth microdilution | H37Rv, GAST medium | MIC at >99% growth inhibition | MIC | 6.25 µM (≈ 3.2 µg/mL) |
| O=C(OCc1ccccc1)c1coc(-c2ccccc2)n1 | microplate alamar blue | H37Rv (ATCC 27294), 7H12 medium | replicating bacteria, range | MIC | 3 to 5 µM (≈ 0.838 to 1.4 µg/mL) |

Some of these lines once more:
| Structure (SMILES) | assay | system | conditions | measurement | value |
| --- | --- | --- | --- | --- | --- |
| Cc1cccc(NCc2ccc(Oc3ccccn3)cc2)c1 | – | H37Rv, GAST-Fe medium | 2 weeks, pH 6.6 | MIC | 43 µM (≈ 12.5 µg/mL) |
| O=C(OCc1ccccc1)c1cc(-c2ccccc2)[nH]n1 | microplate alamar blue | H37Rv (ATCC 27294), GAS medium | replicating bacteria, range | MIC | 1.8 to 4.3 µM (≈ 0.501 to 1.2 µg/mL) |
| [H]/N=C(/N)N[C@H]1[C@H](O)[C@@H](O)[C@H](O[C@@H]2O[C@@H](C)[C@](O)(C=O)[C@H]2O[C@@H]2O[C@@H](CO)[C@H](O)[C@@H](O)[C@@H]2NC)[C@@H](N/C(N)=N\[H])[C@@H]1O | microbial growth, disc diffusion | ATCC25177 | 1 µg/disc, 12 days | inhibition zone | 0 mm |
